{"data": "Published values of several laboratories", "note": "Parts stem from different laboratories: compare values within a part only. Changes are numbered by the printed parent chain."}
{"data": "Block 1", "target": "CCND2, cyclin fold, Cln2 fusion (human)", "method": "yeast growth competition, sequencing", "matrix": "yeast", "notes": "weak parent motif", "baseline": "not given", "direction": "higher = stronger binding", "starting sequence": "WEE1 docking peptide (human); HKTFRKLRLFDTP; partner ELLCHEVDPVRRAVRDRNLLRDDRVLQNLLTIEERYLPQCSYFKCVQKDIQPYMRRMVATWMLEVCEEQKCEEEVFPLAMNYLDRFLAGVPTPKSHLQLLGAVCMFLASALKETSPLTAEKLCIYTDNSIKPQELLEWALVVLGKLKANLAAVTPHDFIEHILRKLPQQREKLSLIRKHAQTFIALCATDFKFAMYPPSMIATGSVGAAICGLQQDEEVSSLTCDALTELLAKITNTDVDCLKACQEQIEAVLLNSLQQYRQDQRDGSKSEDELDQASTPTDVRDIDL"}
{"Variant": "K2M", "normalised enrichment score": -0.191}
{"Variant": "T3S", "normalised enrichment score": -0.868}
{"Variant": "R5E", "normalised enrichment score": 0.686}
{"Variant": "K2Y", "normalised enrichment score": -0.101}
{"Variant": "L9F", "normalised enrichment score": 0.022}
{"Variant": "H1S", "normalised enrichment score": 0.936}
{"Variant": "L7N", "normalised enrichment score": -0.0272}
{"Variant": "F10H", "normalised enrichment score": 0.167}
{"data": "Block 2", "target": "Ras GTPase-activating protein-binding protein 1, RRM domain (G3BP1, Homo sapiens, UniProt Q13283)", "method": "RNA Bind-n-Seq", "form": "RNA", "matrix": "in vitro", "tested at": "1 µM", "notes": "whole 134-nt RNA, ends assumed", "with": "150 mM KCl", "baseline": "input library", "direction": "higher = stronger binding", "all sequences stand within": "GGGAGUUCUACAGUCCGACGAUC … UGGAAUUCUCGGGUGUCAAGG", "chain of UniProt Q13283 (whole entry, looked up)": "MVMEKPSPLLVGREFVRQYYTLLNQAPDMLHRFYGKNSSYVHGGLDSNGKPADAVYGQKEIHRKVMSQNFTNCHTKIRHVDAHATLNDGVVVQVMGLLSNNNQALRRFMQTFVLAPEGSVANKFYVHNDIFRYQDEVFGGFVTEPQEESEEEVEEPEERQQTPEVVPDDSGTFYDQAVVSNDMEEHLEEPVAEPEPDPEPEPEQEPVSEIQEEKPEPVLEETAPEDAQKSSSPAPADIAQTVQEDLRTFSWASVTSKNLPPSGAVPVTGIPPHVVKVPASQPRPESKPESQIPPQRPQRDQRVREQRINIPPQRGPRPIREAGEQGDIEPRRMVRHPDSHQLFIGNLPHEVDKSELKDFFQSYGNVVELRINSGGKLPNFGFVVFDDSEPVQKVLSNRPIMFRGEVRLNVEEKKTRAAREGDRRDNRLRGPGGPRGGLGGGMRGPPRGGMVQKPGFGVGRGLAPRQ"}
{"Sequence": "UAACUUUAGAGGAGGAUCUGAUGGAUAUGGCAGGGGACGUGGAUUUGGGGAUGGCUAUAAUGGGUAUGGAGGAGGACCUGGAGGUGGCAA", "log2 enrichment": -0.252}
{"Sequence": "GCAGGAAGUAAAAACAAAUGGAAAUGCUUCGGAUAGUGGCAGGGGUGGGGGUUGCUAAGGAAAGGGUGGGAUGGGAGUGGGUAAAGAAAA", "log2 enrichment": 1.34}
{"Sequence": "UCAAGUCCUGUGCUACACAUCGUAUGUACCGAAUCGGUUUGGAAAGGUUUUUGGAAAGUAUUAUGUUACGCCGUUCGGAUCUGCACUUCC", "log2 enrichment": -0.188}
{"Sequence": "UAACUUUAGAGGAGGAUCUCAUGGAUAUGGCAGUGGACGUGGAUUUGGGGAUGGCUAUAAUGGGUAUGGAGGAGGACCUGGAGGUGGCAA", "log2 enrichment": -0.828}
{"Sequence": "GUCCUGUGCUACACAUCGUAUGUACCGAAUCGGUUUUUUUGGAAAAAGGUUUUUUUGGAAAGUAUUAUGUUACGCCGUUCGGAUCUGCAC", "log2 enrichment": -0.405}
{"Sequence": "UGCUAGGCAAUGGAUCACUUGGAGUCCUUUAUUGCUGAAUGUGAUCGGAGAACUGAGCUCGCCAAGAAGCGGCUGGCAGAAACACAGGAG", "log2 enrichment": 0.07}
{"Sequence": "UGGCCCUGGUGACAUGCGGGGAGGAAGAGGUGGCCUCAUGGAUCGUGGUGGUCCCGGUGGAAUGUUCAGAGGUGGCCGUGGUGGAGACAG", "log2 enrichment": 0.864}
{"Sequence": "UCCUGUGCUACACAUCGUAUGUACCGAAUCGGUUUUUUGGGUUUUUUGGGUUUUUUGGGAAAGUAUUAUGUUACGCCGUUCGGAUCUGCA", "log2 enrichment": -0.145}
{"Sequence": "GUCCUGUGCUACACAUCGUAUGUACCGAAUCGGGGAAAAAGGGGAGGGGUUUUUGGGGAAAGUAUUAUGUUACGCCGUUCGGAUCUGCAC", "log2 enrichment": 0.9}
{"Sequence": "UGGCCCUGGUGGCAUGCGGGGAGGAAGAGGUGGCCUCACGGAUCGUGGUGGUCCCGGUGGAAUGUUCAGAGGUGGCCGUGGUGGAGACAG", "log2 enrichment": 0.946}
{"Sequence": "CCUCAAGUCCUGUGCUACACAUCGUAUGUACCGAAUCGGGAGGAGGGGAGGGGAAAGUAUUAUGUUACGCCGUUCGGAUCUGCACUUCCA", "log2 enrichment": 0.362}
{"Sequence": "CUCAAGUCCUGUGCUACACAUCGUAUGUACCGAAUCGGAAAAAAAGGUGGAGGAAAGUAUUAUGUUACGCCGUUCGGAUCUGCACUUCCA", "log2 enrichment": -0.155}
{"Sequence": "UGGGAGGUGGAUUUUGUUUAUUUUUUUAGCUCAUUUCCAGGGGUGGGAAUUUUUUUUUAAUAUGUGUCAUGAAAAAAGUUGUUUUUGAAA", "log2 enrichment": 1.32}
{"Sequence": "AAGUCCUGUGCUACACAUCGUAUGUACCGAAUCGGGGCCCGGGGCCCGGGCCCGGGGAAAGUAUUAUGUUACGCCGUUCGGAUCUGCACU", "log2 enrichment": -0.958}
{"data": "Block 3", "target": "Prothrombin, mature alpha-thrombin (F2, Homo sapiens, UniProt P00734)", "method": "aptamer microarray, sandwich", "form": "DNA with 2'F-ANA", "matrix": "in vitro", "tested at": "200 nM", "notes": "whole 15-mer aptamer, many near background", "with": "Cy3 exosite-II aptamer, 400 nM", "direction": "higher = stronger binding", "sequence": "GGTTGGTGTGGTTGG"}
{"Modification": "2'F-ANA at 1 2 4 5 7 8 10 12 13 14", "mean fluorescence intensity": "73 a.u."}
{"Modification": "2'F-ANA at 4 5 6 8 12 14 15", "mean fluorescence intensity": "47.5 a.u."}
{"Modification": "2'F-ANA at 1 3 6 8 12 13 14", "mean fluorescence intensity": "122 a.u."}
{"Modification": "2'F-ANA at 2 3 6 8 9 10 11 13 14", "mean fluorescence intensity": "231 a.u."}
{"Modification": "2'F-ANA at 3 8 9 11", "mean fluorescence intensity": "1120 a.u."}
{"Modification": "2'F-ANA at 3 9 11 13 15", "mean fluorescence intensity": "880 a.u."}
{"Modification": "2'F-ANA at 2 6 7 9 10", "mean fluorescence intensity": "137 a.u."}
{"Modification": "2'F-ANA at 3 5 8 9 12 14", "mean fluorescence intensity": "61.1 a.u."}
{"Modification": "2'F-ANA at 1 4 8 12 14 15", "mean fluorescence intensity": "65.6 a.u."}
{"Modification": "2'F-ANA at 6 8 9 10 11 13", "mean fluorescence intensity": "130 a.u."}
{"Modification": "2'F-ANA at 1 2 4 8 9 13 14 15", "mean fluorescence intensity": "95.3 a.u."}
{"Modification": "2'F-ANA at 1 2 7 8 10 11 12", "mean fluorescence intensity": "78.5 a.u."}
{"Modification": "2'F-ANA at 2 6 7 9 11 12 13 15", "mean fluorescence intensity": "343 a.u."}
{"Modification": "2'F-ANA at 1 3 4 8 12 13 14 15", "mean fluorescence intensity": "131 a.u."}
{"Modification": "2'F-ANA at 2 3 4 7 11 13 15", "mean fluorescence intensity": "465 a.u."}
{"Modification": "2'F-ANA at 2 6 8 12 13 15", "mean fluorescence intensity": "599 a.u."}
{"data": "Other studies, line by line"}
{"Molecule": "PhoQ, residues 284 288 289 292 302 303 SLCLSL", "target": "PhoP, residues 12 14 15 18 19 TPLRH (Escherichia coli, UniProt P23836)", "test": "Sort-seq, item: YFP reporter", "test system": "E. coli", "setting": "PhoQ-PhoP variant library, with: 10 µM Mg2+", "scale": "baseline: high Mg2+ state, higher = stronger signaling", "quantity": "fold induction", "value": 7.4}
{"note": "For quick reference, copied from above (block 1):"}
{"Variant": "K2M", "normalised enrichment score": -0.191}
{"Variant": "K2Y", "normalised enrichment score": -0.101}
{"Variant": "F10H", "normalised enrichment score": 0.167}
{"Variant": "H1S", "normalised enrichment score": 0.936}
